Experimental data collected from several papers.
Numbered parts are unrelated; each lists some results of a single study.
Sequence of UniProt P49759 (whole entry, looked up): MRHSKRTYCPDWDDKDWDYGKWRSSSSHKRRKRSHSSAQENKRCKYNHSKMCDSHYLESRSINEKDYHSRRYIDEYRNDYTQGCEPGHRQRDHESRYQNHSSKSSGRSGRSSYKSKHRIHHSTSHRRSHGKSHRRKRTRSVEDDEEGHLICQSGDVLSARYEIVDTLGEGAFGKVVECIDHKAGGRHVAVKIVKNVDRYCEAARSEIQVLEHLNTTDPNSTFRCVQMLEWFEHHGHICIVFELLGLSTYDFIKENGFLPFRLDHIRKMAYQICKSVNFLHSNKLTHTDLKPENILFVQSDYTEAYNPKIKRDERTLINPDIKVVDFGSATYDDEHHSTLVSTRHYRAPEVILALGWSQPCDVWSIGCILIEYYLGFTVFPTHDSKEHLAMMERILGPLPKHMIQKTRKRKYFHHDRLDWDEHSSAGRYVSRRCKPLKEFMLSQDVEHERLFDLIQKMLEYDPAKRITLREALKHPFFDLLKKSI
Sequence of UniProt P49674 (whole entry, looked up): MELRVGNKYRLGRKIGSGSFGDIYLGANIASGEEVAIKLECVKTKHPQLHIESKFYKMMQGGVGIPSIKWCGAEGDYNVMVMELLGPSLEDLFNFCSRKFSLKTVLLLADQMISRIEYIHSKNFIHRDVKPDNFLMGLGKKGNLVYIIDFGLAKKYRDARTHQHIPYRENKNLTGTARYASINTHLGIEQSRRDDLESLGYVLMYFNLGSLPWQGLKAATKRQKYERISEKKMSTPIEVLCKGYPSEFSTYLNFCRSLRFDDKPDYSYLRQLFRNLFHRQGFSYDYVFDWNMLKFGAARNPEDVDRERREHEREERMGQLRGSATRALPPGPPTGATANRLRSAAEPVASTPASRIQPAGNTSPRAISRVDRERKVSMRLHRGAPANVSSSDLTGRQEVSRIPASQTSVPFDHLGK
Sequence of UniProt P04049 (whole entry, looked up): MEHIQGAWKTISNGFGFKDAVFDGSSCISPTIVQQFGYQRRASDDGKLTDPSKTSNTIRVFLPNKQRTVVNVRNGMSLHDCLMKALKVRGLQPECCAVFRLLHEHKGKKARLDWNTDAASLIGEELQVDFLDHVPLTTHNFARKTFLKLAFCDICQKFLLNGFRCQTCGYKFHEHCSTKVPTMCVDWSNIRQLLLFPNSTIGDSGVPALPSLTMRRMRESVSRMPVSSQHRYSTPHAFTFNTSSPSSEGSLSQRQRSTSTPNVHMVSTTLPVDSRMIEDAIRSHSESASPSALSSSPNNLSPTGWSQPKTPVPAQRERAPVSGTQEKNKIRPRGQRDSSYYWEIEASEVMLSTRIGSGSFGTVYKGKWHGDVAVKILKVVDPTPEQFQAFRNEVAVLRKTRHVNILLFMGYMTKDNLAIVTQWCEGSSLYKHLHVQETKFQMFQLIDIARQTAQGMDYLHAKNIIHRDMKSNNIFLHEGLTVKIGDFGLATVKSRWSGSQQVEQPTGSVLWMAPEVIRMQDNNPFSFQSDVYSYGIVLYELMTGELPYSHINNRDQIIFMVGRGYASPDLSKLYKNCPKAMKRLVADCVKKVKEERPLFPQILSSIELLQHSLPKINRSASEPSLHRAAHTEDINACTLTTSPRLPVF
Sequence of UniProt O15146 (whole entry, looked up): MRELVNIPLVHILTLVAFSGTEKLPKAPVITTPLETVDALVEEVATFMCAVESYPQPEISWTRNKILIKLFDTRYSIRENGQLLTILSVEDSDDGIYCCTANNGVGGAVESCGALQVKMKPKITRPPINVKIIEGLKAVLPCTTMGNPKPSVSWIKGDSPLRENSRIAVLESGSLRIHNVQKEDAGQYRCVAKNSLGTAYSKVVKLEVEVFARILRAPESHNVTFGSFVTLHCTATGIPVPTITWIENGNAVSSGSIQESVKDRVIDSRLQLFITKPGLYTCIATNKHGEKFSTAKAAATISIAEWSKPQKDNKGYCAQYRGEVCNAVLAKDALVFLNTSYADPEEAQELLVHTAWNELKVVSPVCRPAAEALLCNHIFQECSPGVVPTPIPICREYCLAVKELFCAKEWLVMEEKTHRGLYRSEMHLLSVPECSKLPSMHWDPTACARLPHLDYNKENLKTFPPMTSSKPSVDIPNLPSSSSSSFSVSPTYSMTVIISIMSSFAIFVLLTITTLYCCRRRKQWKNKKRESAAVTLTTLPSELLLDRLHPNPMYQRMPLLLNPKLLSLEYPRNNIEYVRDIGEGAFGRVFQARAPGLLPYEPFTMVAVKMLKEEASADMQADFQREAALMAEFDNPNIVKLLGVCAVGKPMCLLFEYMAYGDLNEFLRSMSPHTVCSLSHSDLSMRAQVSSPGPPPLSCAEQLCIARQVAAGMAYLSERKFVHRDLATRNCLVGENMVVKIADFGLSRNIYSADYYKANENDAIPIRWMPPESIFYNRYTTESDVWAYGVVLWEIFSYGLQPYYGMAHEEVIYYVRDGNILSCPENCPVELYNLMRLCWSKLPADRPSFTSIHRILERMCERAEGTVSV
Sequence of UniProt Q9UF33 (whole entry, looked up): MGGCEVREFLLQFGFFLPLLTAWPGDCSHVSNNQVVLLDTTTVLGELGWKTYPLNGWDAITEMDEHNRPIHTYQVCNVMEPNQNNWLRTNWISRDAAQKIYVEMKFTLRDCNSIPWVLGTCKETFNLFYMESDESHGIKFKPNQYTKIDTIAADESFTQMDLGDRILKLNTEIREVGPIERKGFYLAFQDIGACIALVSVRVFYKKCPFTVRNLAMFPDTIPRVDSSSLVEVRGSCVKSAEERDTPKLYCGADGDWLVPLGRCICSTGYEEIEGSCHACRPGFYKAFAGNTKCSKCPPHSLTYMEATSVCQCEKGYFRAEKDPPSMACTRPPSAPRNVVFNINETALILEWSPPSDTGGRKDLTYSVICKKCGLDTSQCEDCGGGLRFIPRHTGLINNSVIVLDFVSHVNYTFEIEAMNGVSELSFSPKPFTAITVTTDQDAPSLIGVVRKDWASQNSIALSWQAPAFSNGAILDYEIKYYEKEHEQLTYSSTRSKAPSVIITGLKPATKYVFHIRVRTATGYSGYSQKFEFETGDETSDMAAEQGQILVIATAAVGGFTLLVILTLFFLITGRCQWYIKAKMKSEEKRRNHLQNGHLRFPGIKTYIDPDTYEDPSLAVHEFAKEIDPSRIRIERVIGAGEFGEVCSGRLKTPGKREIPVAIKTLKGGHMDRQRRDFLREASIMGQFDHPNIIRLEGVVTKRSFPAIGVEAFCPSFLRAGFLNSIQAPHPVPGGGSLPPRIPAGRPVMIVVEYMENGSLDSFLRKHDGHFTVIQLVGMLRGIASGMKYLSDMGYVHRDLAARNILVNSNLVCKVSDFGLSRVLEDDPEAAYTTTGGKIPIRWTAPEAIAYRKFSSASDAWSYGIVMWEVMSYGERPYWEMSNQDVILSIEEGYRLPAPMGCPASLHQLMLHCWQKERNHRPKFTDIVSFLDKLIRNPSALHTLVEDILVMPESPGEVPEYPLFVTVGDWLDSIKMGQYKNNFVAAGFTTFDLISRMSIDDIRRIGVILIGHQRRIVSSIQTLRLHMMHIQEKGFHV
Sequence of UniProt Q13705 (whole entry, looked up): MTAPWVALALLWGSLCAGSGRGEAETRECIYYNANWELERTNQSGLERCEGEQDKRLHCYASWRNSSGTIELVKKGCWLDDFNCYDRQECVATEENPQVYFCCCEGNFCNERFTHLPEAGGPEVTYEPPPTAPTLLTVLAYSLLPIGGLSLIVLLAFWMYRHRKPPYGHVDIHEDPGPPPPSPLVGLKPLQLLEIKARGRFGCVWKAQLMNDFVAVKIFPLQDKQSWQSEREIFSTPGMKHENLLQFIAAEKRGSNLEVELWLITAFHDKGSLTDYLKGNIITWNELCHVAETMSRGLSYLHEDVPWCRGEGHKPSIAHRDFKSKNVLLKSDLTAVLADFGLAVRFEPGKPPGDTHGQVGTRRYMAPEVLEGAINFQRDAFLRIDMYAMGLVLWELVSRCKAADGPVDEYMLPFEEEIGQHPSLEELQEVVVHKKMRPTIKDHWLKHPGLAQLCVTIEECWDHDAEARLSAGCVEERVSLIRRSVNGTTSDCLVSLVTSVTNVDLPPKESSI
Sequence of UniProt Q13153 (whole entry, looked up): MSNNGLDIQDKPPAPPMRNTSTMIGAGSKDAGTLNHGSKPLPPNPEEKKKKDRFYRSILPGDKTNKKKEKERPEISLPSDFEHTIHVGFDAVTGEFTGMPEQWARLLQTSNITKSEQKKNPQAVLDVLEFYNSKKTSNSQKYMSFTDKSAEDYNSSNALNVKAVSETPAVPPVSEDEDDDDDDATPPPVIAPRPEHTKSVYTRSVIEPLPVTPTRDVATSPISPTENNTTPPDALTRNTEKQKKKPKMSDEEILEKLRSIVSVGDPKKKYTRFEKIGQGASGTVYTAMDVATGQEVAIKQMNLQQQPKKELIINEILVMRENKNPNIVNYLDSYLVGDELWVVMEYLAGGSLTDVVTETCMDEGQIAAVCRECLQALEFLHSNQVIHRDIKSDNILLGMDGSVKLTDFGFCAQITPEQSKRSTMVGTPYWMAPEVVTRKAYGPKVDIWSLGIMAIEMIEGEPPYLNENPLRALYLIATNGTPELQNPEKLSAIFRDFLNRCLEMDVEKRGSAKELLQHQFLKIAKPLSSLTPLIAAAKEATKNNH

Set 1
Compound: CN1CCN(c2ccc3nc(-c4c(N)c5c(F)cccc5[nH]c4=O)[nH]c3c2)CC1
Concentration: 0.5 µM
Quantity: remaining activity
target = SIK2 (Homo sapiens, UniProt Q9H0K1); assay = enzyme activity, inhibitor; how to read = relative to: control; result = 25.5%
target = PRKCQ (Homo sapiens, UniProt Q04759); assay = enzyme activity, inhibitor; how to read = relative to: control; result = 97.6%
target = CSNK1D (Homo sapiens, UniProt P48730); assay = enzyme activity, inhibitor; how to read = relative to: control; result = 79.3%
target = Cyclin-dependent kinase 2, with cyclin E (CDK2, Homo sapiens, UniProt P24941); assay = enzyme activity, inhibitor; how to read = relative to: control; result = 92.3%
target = EPHA2 (Homo sapiens, UniProt P29317); assay = enzyme activity, inhibitor; how to read = relative to: control; result = 76.9%
target = CAMK1 (Homo sapiens, UniProt Q14012); assay = enzyme activity, inhibitor; how to read = relative to: control; result = 85.8%
target = PAK1 (Homo sapiens, UniProt Q13153); assay = enzyme activity, inhibitor; how to read = relative to: control; result = 111%
target = CSNK1E (Homo sapiens, UniProt P49674); assay = enzyme activity, inhibitor; how to read = relative to: control; result = 94.1%
target = RPS6KA3 (Homo sapiens, UniProt P51812); assay = enzyme activity, inhibitor; how to read = relative to: control; result = 34.3%
target = ABL2 (Homo sapiens, UniProt P42684); assay = kinase activity; conditions = with: ATP 10 µM; how to read = relative to: untreated; result = 24.3%
target = CAMKK1 (Homo sapiens, UniProt Q8N5S9); assay = enzyme activity, inhibitor; how to read = relative to: control; result = 48.5%
target = CLK1 (Homo sapiens, UniProt P49759); assay = enzyme activity, inhibitor; how to read = relative to: control; result = 67.8%
target = PAK6 (Homo sapiens, UniProt Q9NQU5); assay = enzyme activity, inhibitor; how to read = relative to: control; result = 103%
target = MAP3K20 (Homo sapiens, UniProt Q9NYL2); assay = enzyme activity, inhibitor; how to read = relative to: control; result = 91.5%
target = SGK2 (Homo sapiens, UniProt Q9HBY8); assay = enzyme activity, inhibitor; how to read = relative to: control; result = 89.8%
target = PRKCZ (Homo sapiens, UniProt Q05513); assay = enzyme activity, inhibitor; how to read = relative to: control; result = 81%
target = EPHA6 (Homo sapiens, UniProt Q9UF33); assay = enzyme activity, inhibitor; how to read = relative to: control; result = 44.6%
target = CLK2 (Homo sapiens, UniProt P49760); assay = enzyme activity, inhibitor; how to read = relative to: control; result = 38.6%
target = JAK1 (Homo sapiens, UniProt P23458); assay = enzyme activity, inhibitor; how to read = relative to: control; result = 92.1%
target = SRPK1 (Homo sapiens, UniProt Q96SB4); assay = enzyme activity, inhibitor; how to read = relative to: control; result = 97.5%
target = TEC (Homo sapiens, UniProt P42680); assay = enzyme activity, inhibitor; how to read = relative to: control; result = 91%
target = MUSK (Homo sapiens, UniProt O15146); assay = enzyme activity, inhibitor; how to read = relative to: control; result = 63.2%

Set 2
Target: Alpha-2C adrenergic receptor (ADRA2C, Homo sapiens, UniProt P18825)
Sequence of UniProt P18825 (whole entry, looked up): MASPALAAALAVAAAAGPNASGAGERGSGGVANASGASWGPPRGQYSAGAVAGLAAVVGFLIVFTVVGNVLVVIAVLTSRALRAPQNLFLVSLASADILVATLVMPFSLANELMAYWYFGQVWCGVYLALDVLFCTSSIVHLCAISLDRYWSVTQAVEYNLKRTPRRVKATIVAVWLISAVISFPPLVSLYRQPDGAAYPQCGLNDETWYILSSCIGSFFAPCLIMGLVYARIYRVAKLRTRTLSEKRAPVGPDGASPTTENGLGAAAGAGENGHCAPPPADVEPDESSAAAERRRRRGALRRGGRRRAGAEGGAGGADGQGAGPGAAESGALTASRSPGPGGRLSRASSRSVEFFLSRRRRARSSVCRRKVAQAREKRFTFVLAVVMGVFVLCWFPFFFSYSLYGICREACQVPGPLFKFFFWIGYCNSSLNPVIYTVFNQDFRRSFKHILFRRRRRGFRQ
Read-out: binding
Method: radioligand binding
Concentration: 10 µM
Quantity: inhibition
SMILES = Cc1nc(C2CCN(C(=O)c3ccc(OC(F)(F)F)cc3N)CC2)c2ncc(N3CCN(C)CC3)cc2n1; result = -6.01%
SMILES = COCc1nc2cnc3cc(-c4c(C)noc4C)c(OC[C@H]4CCNC4)cc3c2n1[C@H](C)c1ccccc1; result = 15.3%
SMILES = O[C@]1(C(F)(F)F)CCCC[C@H]1Nc1ccc(F)cc1; result = 4.19%
SMILES = CNC(=O)c1ccc(Nc2ncc(C(F)(F)F)c(NCc3nccnc3N(C)S(C)(=O)=O)n2)cc1; result = 4.73%
SMILES = CCCOc1ccc([C@H]2[C@H](C(=O)O)[C@@H](c3ccc4c(c3)OCO4)CN2CC(=O)Nc2c(CC)cccc2CC)cc1; result = 0.5%
SMILES = Cc1nccc(COC(=O)N2C[C@@H]3[C@@H](CNC(=O)c4ccc5[nH]nnc5c4)[C@@H]3C2)n1; result = 3.82%
SMILES = O=C(Nc1ccc(-n2nc(-c3cccnc3)cc2C(F)(F)F)cn1)c1ccc(-c2ccccc2)c(F)c1; result = 6.33%
SMILES = O=C(O)c1cc(-c2ccc(C3CCNCC3)cc2)c2ccc(-c3ccc(C(F)(F)F)cc3)cc2c1; result = 30.2%
SMILES = CN1CCN(C(=O)C(C)(C)c2ccc(C(=O)Nc3cn4cc(-c5ccncc5)ccc4n3)cc2)CC1; result = 17.2%
SMILES = CC(=O)N1CCC(c2ccc(C(=O)NC(=N)N)cc2C(F)(F)F)CC1; result = 9.12%
SMILES = O=C(Nc1cnc(Oc2ccc(F)cc2)nc1)N1CCc2ncccc2[C@@H]1c1ccc(F)cc1; result = 8.55%
SMILES = Cc1nc(N2CC[C@@H](O)C2)ncc1-c1cc(C(F)(F)F)cc2[nH]ncc12; result = 2.18%
SMILES = CC(C)CC(=O)N1CCc2nc(-c3ccc(Br)cc3)nc(N(C)Cc3ccccc3)c2C1; result = 48%
SMILES = Cc1cc(-n2nc(Cc3cc(F)cc(C(F)(F)F)c3)nc2C)ccc1C(N)=O; result = 9.76%
SMILES = O=C(NC[C@@H]1[C@H]2CN(C(=O)OCc3cc(C(F)(F)F)cc(C(F)(F)F)c3)C[C@@H]12)c1ccc2[nH]nnc2c1; result = 19%
SMILES = O=C(Nc1cccnn1)N1CCC(=Cc2cccc(Oc3ccc(C(F)(F)F)cn3)c2)CC1; result = 79.3%
SMILES = CC(=O)Nc1c(F)cc(C(=O)N[C@H]2CC[C@H](O)CC2)cc1O[C@@H](C)c1ccccc1; result = -0.86%
SMILES = CC(C)(O)c1cncc(-c2nc3ccc(F)cc3n2C2CC2)c1; result = 70.1%
SMILES = CCOCCn1cc(C(=O)Nc2ccc(-n3nc(-c4cccnc4)cc3C(F)(F)F)cn2)ccc1=O; result = -13.3%
SMILES = COc1cc(-c2cn(C3CCc4ccccc4N(CC(F)(F)F)C3=O)nn2)ccc1-n1ccc(C)n1 (centres unmarked); result = 9.04%
SMILES = Cc1nc(Cc2cccc(C(F)(F)F)c2)sc1-c1ccc(C(N)=O)nc1; result = 8.38%
SMILES = Cc1cc(C)c(-n2ccn3nc(-c4cccnc4)cc23)cc1NC(=O)c1cc(C#N)cc(S(F)(F)(F)(F)F)c1; result = -7.91%
SMILES = C[C@@H]1CN(c2cc(-c3nn(C)c4ccc(OC5(C)CC5)cc34)ncn2)C[C@H](C)O1; result = 15.1%
SMILES = Cc1c(NC(=O)c2cc(C(N)=O)nc3cc(F)ccc23)c(C(F)(F)F)nn1Cc1ccc(C(C)(C)C)cc1; result = 2.11%
SMILES = CC(=O)Nc1nc(CN2CCC[C@H](Cc3cc(C)nc(C)c3)C2)cs1; result = 36.5%

Set 3
Structure (SMILES): Cc1nc(Nc2ncc(C(=O)Nc3c(C)cccc3Cl)s2)cc(N2CCN(CCO)CC2)n1
Action: inhibitor
Concentration: 10 µM
Quantity: inhibition
target = ACVR2B (Homo sapiens, UniProt Q13705); result = 96%
target = GSK3B (Homo sapiens, UniProt P49841); result = < 50%
target = PIM1 (Homo sapiens, UniProt P11309); result = < 50%
target = MAP2K1 (Homo sapiens, UniProt Q02750); result = 97%
target = CLK1 (Homo sapiens, UniProt P49759); result = < 50%
target = RAF1 (Homo sapiens, UniProt P04049); result = 93%
target = ROCK2 (Homo sapiens, UniProt O75116); result = < 50%

Set 4
Host: human
Sample: microsomes or S9
Concentration: 2 µM
Time: 0.5 h
Quantity: remaining compound
SMILES = CCOC1CC(N(C)C(=O)COCc2ocnc2C(=O)O)C1(C)C (centres unmarked); result = > 100%
SMILES = COc1cc(OC)c2c(=O)cc(-c3ccccc3)oc2c1; result = 16%
SMILES = COCCN(C)C(=O)C1(C)CN(S(C)(=O)=O)CCO1 (centres unmarked); result = 91.8%
SMILES = CCOc1cc(=O)n2c(c1C(=O)NCCc1ccc(OC)c(OC)c1)CCCC2; result = 94%
SMILES = O=C(C1CC(=O)N(c2nc[nH]n2)C1)N1CCC(c2c[nH]c3ccccc23)(c2c[nH]c3ccccc23)CC1 (centres unmarked); result = 6.95%
SMILES = Cc1cc(C)c2c(n1)oc1c(N3CCN(C(=O)c4ccco4)CC3)ncnc12; result = 100%
SMILES = Cc1ccc(Nc2cc(N3CCN(c4oc(C)nc4C#N)CC3)ncn2)cc1; result = 6.26%
SMILES = CC(C)(C)C(=O)c1sc2c(c1N)c(=O)[nH]c(=O)n2C1CCCCC1; result = > 100%
SMILES = COC(=O)NC12CCCC(C1)c1ccc(=O)[nH]c1C2 (centres unmarked); result = > 99.9%
SMILES = O=C(O)c1ccc(CN(c2ccccn2)S(=O)(=O)c2ccccc2)cc1; result = 96.5%
SMILES = CCOc1ccccc1O[C@@H](c1ccccc1)[C@@H]1CNCCO1; result = 68.8%

Excerpt of the above (set 4):
SMILES = COCCN(C)C(=O)C1(C)CN(S(C)(=O)=O)CCO1 (centres unmarked); result = 91.8%
SMILES = CCOc1cc(=O)n2c(c1C(=O)NCCc1ccc(OC)c(OC)c1)CCCC2; result = 94%
SMILES = COC(=O)NC12CCCC(C1)c1ccc(=O)[nH]c1C2 (centres unmarked); result = > 99.9%
SMILES = COc1cc(OC)c2c(=O)cc(-c3ccccc3)oc2c1; result = 16%
SMILES = Cc1ccc(Nc2cc(N3CCN(c4oc(C)nc4C#N)CC3)ncn2)cc1; result = 6.26%
SMILES = CCOc1ccccc1O[C@@H](c1ccccc1)[C@@H]1CNCCO1; result = 68.8%
SMILES = Cc1cc(C)c2c(n1)oc1c(N3CCN(C(=O)c4ccco4)CC3)ncnc12; result = 100%
SMILES = O=C(O)c1ccc(CN(c2ccccn2)S(=O)(=O)c2ccccc2)cc1; result = 96.5%
SMILES = CC(C)(C)C(=O)c1sc2c(c1N)c(=O)[nH]c(=O)n2C1CCCCC1; result = > 100%
SMILES = CCOC1CC(N(C)C(=O)COCc2ocnc2C(=O)O)C1(C)C (centres unmarked); result = > 100%
